Measurements pooled from the literature.
Parts stem from different laboratories: compare values within a part only. Changes are numbered by the printed parent chain.

Series 1 — method: protein binding microarray; form: double-stranded DNA, one strand shown; sample: in vitro; tested at: not given; relative to: not given; direction: higher = stronger binding; measurement: E-score
Target: Histone acetyltransferase KAT6A, winged helix 2, GST fusion (KAT6A, Homo sapiens, UniProt Q92794, residues 85-181)
Notes: 8-mer, flanks averaged, mean of 2 arrays, mostly near background
Residues (chain): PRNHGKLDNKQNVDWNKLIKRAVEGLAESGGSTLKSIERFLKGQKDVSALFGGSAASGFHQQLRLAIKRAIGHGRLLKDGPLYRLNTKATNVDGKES
ACAAGACG: -0.094
AATCAACG: 0.0726
AAGTTTCT: -0.144
AACGAGTC: -0.0841
AGCGTCTC: -0.0766
CCTTTCAC: -0.0555
CGGATTTC: 0.105
ACTCTATA: -0.178
ACCCCATC: -0.0116
CGAAAGTA: -0.153
ACAATCTG: 0.0693
GGCGGAAA: 0.0242
CCACTGAC: 0.167
GGGGTAGA: -0.0551
AGTGACAC: 0.0784
CTGTCTAC: -0.0819
AGAAGGAA: 0.0115
CACTGACC: 0.129
GAACCCGC: -0.0411
ATCCTCGG: 0.0505
CCGGTGGC: 0.117
CTGCATTA: 0.0532
GCCACGTA: -0.286
ATGCAGAA: 0.0895
AGATCCGG: 0.0691

Series 2 — method: protein-binding microarray; form: double-stranded DNA, one strand shown; sample: in vitro; tested at: 250 nM; notes: 60-bp whole probe; together with: salmon DNA 0.4 mg/ml; relative to: random background probes; direction: higher = stronger binding; measurement: log fluorescence; all sequences stand within: GCCTAGCAC … GTCTTGATTCGCTTGACGCTGCTG
Target: Interferon regulatory factor 5, full length, phosphomimetic (IRF5, Homo sapiens, UniProt Q13568-2, residues 1-514, K96S/S451D/S453D/S456D/S462D)
TCAACTTTCAGTTCTCCACTGTGCTAG: 5.88 z-score
TTAGATGTCAGTTTCGATTAGTGCTAG: 9.48 z-score
TCAGGTCACTCTCTGGGACTGTGCTAG: -0.645 z-score
TTCATTATTGCTTCCTCTTTGTGCTAG: 1.35 z-score
GACGGACTACTTCTCCTGACGTGCTAG: -0.129 z-score
GACGGTCTCGGACTGGAGACGTGCTAG: -0.183 z-score
TTAGGTATCCAACTGCTTTAGTGCTAG: 0.0961 z-score
TAAGAACTGAGTATCGATTAGTGCTAG: 7.1 z-score
GACGGTTTCAGTTCCGAGACGTGCTAG: 2.99 z-score
TCGAGTCTGCAACATGGGACTGTGCTA: -0.147 z-score
TCATCATTCCTGATCTCACTGTGCTAG: 0.0186 z-score
GAGGATTCCAGTTTCGAGACGTGCTAG: 5.41 z-score
CTAGAACTGGGGTATCGATTAGTGCTA: 1.92 z-score
CAGGGTTTCAGATGCGTGAGGTGCTAG: 0.162 z-score
TTAGGGATCGACTATCGGTTAGTGCTA: 6.79 z-score
GACGTTATCGGACTGGGGACGTGCTAG: 0.75 z-score
TTATGTATCCTTTTCCTTTAGTGCTAG: 1.23 z-score
GTCGATATCGGGTATCGAGACGTGCTA: 4.19 z-score
GACGATTTCAGACTGGTGACGTGCTAG: 0.243 z-score
GACGGTTTCGACTATCGCGACGTGCTA: 6.29 z-score
GACGGTCTCTTACTGCTGACGTGCTAG: -0.158 z-score
GTACCACTCCAGTTCTGGGAGTGCTAG: 0.0367 z-score
TCACATATTTATCTGCAACTGTGCTAG: 0.646 z-score

Series 3 — method: RNA Bind-n-Seq; form: RNA; sample: in vitro; tested at: 365 nM; relative to: no-protein control; direction: higher = stronger binding; measurement: RBNS enrichment (R)
Target: RNA binding protein fox-1 homolog 2, RRM domain, GST-SBP tag (RBFOX2, Homo sapiens, UniProt O43251-10, residues 100-194)
Notes: natural RNA segment, single round, ends assumed
All sequences stand within: GGGAGUUCUACAGUCCGACGAUC … UGGAAUUCUCGGGUGCCAA
Target sequence (chain): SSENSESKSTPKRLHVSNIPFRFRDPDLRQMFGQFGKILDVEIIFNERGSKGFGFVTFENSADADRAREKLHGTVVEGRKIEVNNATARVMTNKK
UAUUGCUUCAGUAGAGCCACAAUAUGUAUCUUUGCUGUAAAGUGCAAGGAAAUUUUAAAUUCUGGGACACUGAGUUAGAUGGUAAAUACUGACUUACGAAAGUUGAAUUG: 0.32
CUUCAGCUCAGCGGCAGCCCCGAAAUUGUUAAGGCCCGUACUUUUCCUGCCACUUGGUCUGACCCUGGGCCUCUUGUCUUUGGCUUGAACAUUAAGCUAUUUAACCCUCA: 0.488
AUUUGUUUAGGGUUGUGAGGUUGUGUAAAAUAGUACUAGCUUCUUACUUGAGAACUACAGUUUCUGCUUAUCAUUUAUUCUUCCUUGUGGCACUUAAUAUUUUAAUUGUC: 0.304
AUUUCCAGUUUUAAAACUGCCCCUCAGAUACAAUUUCAAAGUAGGGUACACAUUAGAGUGUCUUUGAGUUCAACAAGUUGGUACUGUUGCAAACACCUUCUGAAUUGCCA: 0.411
UUCCCCUCGGAAACUGCUUCUGCUGGAGGAUAUGUGUUGGAAUAAUUACGUCUUGAGUCUGGGAUUAUCCGCAUUGUAUUUAGUGCUUUGUAAUAAAAUAUGUUUUGUAG: 1.18
UCGAGUCAAGCUUAUCCCCAUUUUUGAGAGAGAAGGGGUACCUUCACAGACCGAUGCCCUUCUUACCCCAAGUUCCCAUAAACACUUGCAUGCAGAAGCACACAGGACAC: 4.85
UACUUAAUGAAAUGGACUUUUUGGAAAGAAAUCAGAUGAAGGCAUAAAAUUUAGUUCUUAGCUCUUGAACAGAAGCCUAAAAUUCCUGGUUCUCUCAGGGCUUCGCCUUC: 0.51
UUAACAGCUGAGCCUUGGACCCCACUGCCUCUGAGUCUACAUUCUGGCAGGCAGUCCCAUGCUCUGGGCCUUACCUCUAGUCCCCUGCCUGCUCACACCUGGUCCCCUAG: 0.285
CCACCCCCAGUACCCCAGGUGUGUAUACCCAGGUCAUACACUGCAACCCCAAGUGGUCCCAGGAUCCUUGGCCUGUCAAAAUGGGGGCAGACCCUCCCCAAUUCUAGUUC: 0.261
UAUAUUUUCAUUAUAAAAAACCAGUUUAAAAUUUUUUCUUAUUUUAAUUGUUUGAAAUUUUUCUAGAGCCAAAGAAGCUCUUUAAAGAAGUUGUUUCUUCCAAAGAACAA: 1.24
UGAACAAAUACUUUUGAAAAGAAAAGUUUGUUGUAUAGUCAAAAGAAAACGGUGUCAGCGGCCGAGACAAAUUCUGGUAGGUUCUGUGCAUGUGAAGCGGCCGUGAAGGG: 35.2
GAGGCAACACUGUUCCGUUUGCACAUGAAGGACCACCACUCACCCCUCCCCCCAGGACCACCCAGGCCCACAUCCACCGGCUUCCUCAGCAGAUGCUGGGGUAUGGCCUC: 0.452

Series 4 — target: CCNE2, cyclin fold, Cln2 fusion (human); method: yeast growth competition, sequencing; sample: yeast; notes: strong parent motif; relative to: not given; direction: higher = stronger binding; measurement: normalised enrichment score
Starting sequence: SCAPER docking peptide (human); SNARRSLNFGGST
F9Q: -0.0415
N8G: 0.841
R5M: 0.757
R4P: 0.075
S1I: 1.3
S1F: 2.39
F9L: 0.274
F9K: 0.11
R5T: 0.347
N8L: 0.413
G10C: 1.42
T13G: 1.44
G11A: 1.35
S1C: 2.03
T13E: 1.55
G11S: 0.818
A3R: 0.445
L7Y: 0.188
S6A: 3.09
N8A: 0.517
T13L: 1.12
G11C: 1.18
N8W: 1.38
N2S: 1.86
A3P: 0.385

Series 5 — method: DHFR PCA, deep sequencing; sample: yeast; together with: (+)-ABA 710 µM; relative to: wild-type fitted maximum; direction: higher = stronger binding; measurement: relative binding score
Target: ABI1, truncated, D143A, DHFR fusion (Arabidopsis thaliana)
Notes: methotrexate growth selection, single substitutions
Starting sequence: PYL1, truncated, DHFR fusion (Arabidopsis thaliana); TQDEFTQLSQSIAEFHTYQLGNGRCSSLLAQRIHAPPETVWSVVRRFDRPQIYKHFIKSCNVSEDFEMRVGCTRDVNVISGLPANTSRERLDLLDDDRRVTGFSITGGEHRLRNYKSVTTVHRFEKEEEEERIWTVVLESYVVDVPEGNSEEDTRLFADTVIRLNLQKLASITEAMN; partner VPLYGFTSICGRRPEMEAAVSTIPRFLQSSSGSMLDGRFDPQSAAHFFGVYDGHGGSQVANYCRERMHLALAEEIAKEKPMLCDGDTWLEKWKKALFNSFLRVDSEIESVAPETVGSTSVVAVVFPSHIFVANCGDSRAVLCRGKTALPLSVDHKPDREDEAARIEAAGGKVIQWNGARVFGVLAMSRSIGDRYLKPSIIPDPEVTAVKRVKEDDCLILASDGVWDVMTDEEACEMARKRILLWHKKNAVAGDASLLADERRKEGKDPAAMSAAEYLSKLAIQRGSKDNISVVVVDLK
P83K: 8.56%
Q10N: 104%
Y141I: -3.53%
P50Y: -22.8%
R163W: 53%
G102R: 77.6%
T160P: -13.8%
H34S: 104%
F15Q: 80.3%
V118H: 103%
R155E: 78.7%
V161E: -12.7%
L166H: 98.5%
L20G: 102%
S63W: 82.1%

Mixed results
PhoQ, residues 284 288 289 292 302 303 TNSAEL — fold induction (PhoP, residues 12 14 15 18 19 STWGI (Escherichia coli, UniProt P23836); Sort-seq, measured: YFP reporter; E. coli; PhoQ-PhoP variant library, together with: 10 µM Mg2+; relative to: high Mg2+ state, higher = stronger signaling): 0.378

Some of these lines once more (series 2):
TCGAGTCTGCAACATGGGACTGTGCTA: -0.147 z-score
TTAGGGATCGACTATCGGTTAGTGCTA: 6.79 z-score
GACGGTCTCGGACTGGAGACGTGCTAG: -0.183 z-score
GTACCACTCCAGTTCTGGGAGTGCTAG: 0.0367 z-score
TCAGGTCACTCTCTGGGACTGTGCTAG: -0.645 z-score
GACGTTATCGGACTGGGGACGTGCTAG: 0.75 z-score
TCATCATTCCTGATCTCACTGTGCTAG: 0.0186 z-score
GACGGTCTCTTACTGCTGACGTGCTAG: -0.158 z-score
GACGGTTTCAGTTCCGAGACGTGCTAG: 2.99 z-score
CTAGAACTGGGGTATCGATTAGTGCTA: 1.92 z-score
TTATGTATCCTTTTCCTTTAGTGCTAG: 1.23 z-score
GAGGATTCCAGTTTCGAGACGTGCTAG: 5.41 z-score
TTCATTATTGCTTCCTCTTTGTGCTAG: 1.35 z-score
TCACATATTTATCTGCAACTGTGCTAG: 0.646 z-score
CAGGGTTTCAGATGCGTGAGGTGCTAG: 0.162 z-score
